Measurements pooled from the literature.
A part holds a random share of what one study measured. Positions count from the first letter of the parent shown.

Set 1
Target: CCND1, cyclin fold, Cln2 fusion (human)
Technique: yeast growth competition, sequencing
Matrix: yeast
Setting: weak parent motif
Reference: not given
Direction: higher = stronger binding
Measurement: normalised enrichment score
Starting sequence: E2F1 docking peptide (human); PPVKRRLDLETDH; partner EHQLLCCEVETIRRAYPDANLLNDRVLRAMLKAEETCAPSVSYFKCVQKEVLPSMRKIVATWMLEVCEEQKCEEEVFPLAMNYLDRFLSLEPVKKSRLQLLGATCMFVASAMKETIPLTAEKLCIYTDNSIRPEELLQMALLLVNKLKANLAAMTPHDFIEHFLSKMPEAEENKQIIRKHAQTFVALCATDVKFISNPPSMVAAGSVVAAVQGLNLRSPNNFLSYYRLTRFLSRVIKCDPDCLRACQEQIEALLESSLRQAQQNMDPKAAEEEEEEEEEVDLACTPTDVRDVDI
P2L: -0.0856
P2Q: 0.103
E10H: 0.763
K4I: 0.41
D12Q: 0.744
T11G: -0.0154
D12W: 6.77e-05
T11H: -0.118
L7E: 0.00121
P2A: 0.0788
P2D: 0.831
E10C: 0.242
R6G: 0.452
P1T: 0.628
R5M: 0.671
E10M: -0.0801
D12S: 0.36
P2I: 0.00348
L9F: 3.24
H13E: 0.0243
T11Q: -0.0832
R5G: 0.112
L7S: -0.13
H13S: 0.738
T11C: 0.131

Set 2
Target: Interferon regulatory factor 5, full length, phosphomimetic (IRF5, Homo sapiens, UniProt Q13568-2, residues 1-514, K96S/S451D/S453D/S456D/S462D)
Technique: protein-binding microarray
Form: double-stranded DNA, one strand shown
Matrix: in vitro
Concentration: 250 nM
Setting: 60-bp whole probe
Together with: salmon DNA 0.4 mg/ml
Reference: random background probes
Direction: higher = stronger binding
Measurement: log fluorescence
Constant ends, left off below: GCCTAGCAC … GTCTTGATTCGCTTGACGCTGCTG
TTAGGTCTCGGTTCCGGTTAGTGCTAG: 1.51 z-score
GGCGATATCGGGTTTCGAGACGTGCTA: 3.4 z-score
CACTATTTAAGGCCTATGCACGTGCTA: 0.107 z-score
GAGGGTATCGGGTTTCGGGACGTGCTA: 3.29 z-score
TTTCATTGCTGCCCTCAGAAAGTGCTA: 7.02 z-score
GACGATCTCAGTTACGAGACGTGCTAG: 0.0608 z-score
GACGATATCGGGTATCTAGACGTGCTA: 1.83 z-score
GACGGTCTACTTATCCTGACGTGCTAG: 0.172 z-score
GACGATCTCGGACTGGGGACGTGCTAG: -0.48 z-score
TCATATTTGCAACATCCCACTGTGCTA: 0.301 z-score
GACGGTTTCCCTTCCCTGACGTGCTAG: 0.819 z-score
TTTGAACTGAGACTGGATTAGTGCTAG: -0.027 z-score
TTAGGTATCAGTCTCGGTTAGTGCTAG: 2.39 z-score
TCAATTGTCTCTGTCCCACTGTGCTAG: 0.356 z-score
GACCGTTTCCTTTTCCTGACGTGCTAG: 1.23 z-score
TACGGTTCCGGTTTCGGGACGTGCTAG: 5.09 z-score
GACGATCTCAGACTTGAGACGTGCTAG: -0.277 z-score
TTAGGATTCGACTATCGGTTAGTGCTA: 7.08 z-score
TTAGGTTCCGGTTTCGGGTAGTGCTAG: 7.33 z-score
TTAGAACTGAGTCTCGATTAGTGCTAG: 0.657 z-score
GACGGTTTCGATTCCGGGACGTGCTAG: 8.4 z-score
TCACCACTCCAGTTCTGACTGTGCTAG: 0.0309 z-score
GACGAGTTCAGTCTCGAGACGTGCTAG: -0.0656 z-score
TTAGGTTCCCTGTTCCTTTAGTGCTAG: -0.117 z-score
GATGAACTGAGTCTCGAGACGTGCTAG: 0.175 z-score

Set 3
Target: ABI1, truncated, D143A, DHFR fusion (Arabidopsis thaliana)
Technique: DHFR PCA, deep sequencing
Matrix: yeast
Setting: methotrexate growth selection, single substitutions
Together with: (+)-ABA 0.39 µM
Reference: wild-type fitted maximum
Direction: higher = stronger binding
Measurement: relative binding score
Starting sequence: PYL1, truncated, DHFR fusion (Arabidopsis thaliana); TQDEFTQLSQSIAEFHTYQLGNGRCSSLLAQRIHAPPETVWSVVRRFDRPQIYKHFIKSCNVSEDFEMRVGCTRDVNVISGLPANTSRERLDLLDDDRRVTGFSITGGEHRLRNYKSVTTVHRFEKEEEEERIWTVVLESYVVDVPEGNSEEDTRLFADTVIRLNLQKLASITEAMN
G21F: 0.369%
D75H: 44.7%
C60F: 10%
D65Y: 3.48%
S80C: 16%
D92Q: -10.9%
T73K: 8.35%
I33F: -3.44%
Q31W: 1.76%
Q10D: 65.2%
G21T: 47.2%
G108D: -6.25%
S87C: 26.8%
I133P: 70.4%
K168M: 11.4%

Set 4
Target: Histone acetyltransferase KAT6A, both winged helices, GST fusion (KAT6A, Homo sapiens, UniProt Q92794, residues 1-181)
Technique: protein binding microarray
Form: double-stranded DNA, one strand shown
Matrix: in vitro
Concentration: not given
Setting: 8-mer, flanks averaged, mean of 2 arrays, mostly near background
Reference: not given
Direction: higher = stronger binding
Measurement: E-score
Residues (chain): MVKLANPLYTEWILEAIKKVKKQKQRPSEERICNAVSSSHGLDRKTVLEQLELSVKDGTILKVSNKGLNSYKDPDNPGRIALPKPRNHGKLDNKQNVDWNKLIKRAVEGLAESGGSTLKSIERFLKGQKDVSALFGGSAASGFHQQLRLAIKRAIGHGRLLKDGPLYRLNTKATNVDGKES
ATTTTTCG: -0.0524
GCAAGAGA: -0.0341
CCTCAAGG: -0.241
TCACGAAA: -0.024
CGTAGTGA: 0.0488
TCACTAGA: -0.0513
TCAGTCCA: -0.148
AAACTACC: -0.0477
AAACAGGA: -0.23
AAGCTTGG: -0.0733
ATGTTGTG: -0.0147
CCGAGAAC: 0.0938
GCCGTAGA: 0.233
AACAAAGT: -0.0967
ACGATCTC: 0.0122
ATTCGAAG: -0.076
ATTGAAAG: -0.087
GTAATTAA: -0.0261
GCTGGAAC: -0.0969
ACTAGCAA: -0.17
AATAAGAA: -0.074
CCCGTTTA: 0.158
ATGTTACA: -0.0785
CGGCTTGA: 0.207
GCTCTCTA: -0.12

Set 5
Target: RNA binding protein fox-1 homolog 2, RRM domain, GST-SBP tag (RBFOX2, Homo sapiens, UniProt O43251-10, residues 100-194)
Technique: RNA Bind-n-Seq
Form: RNA
Matrix: in vitro
Concentration: 365 nM
Setting: natural RNA segment, single round, ends assumed
Reference: no-protein control
Direction: higher = stronger binding
Measurement: RBNS enrichment (R)
Constant ends, left off below: GGGAGUUCUACAGUCCGACGAUC … UGGAAUUCUCGGGUGCCAA
Residues (chain): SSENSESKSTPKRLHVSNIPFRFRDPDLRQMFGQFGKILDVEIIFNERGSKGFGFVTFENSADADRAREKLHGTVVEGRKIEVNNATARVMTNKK
GUCUGUAGUCUUUAUGAUCCUAAAAGGGAAAAUUGCCUUGGUAACUUUCAGAUUCCUGUGGAAUUGUGAAUUCAUACUAAGCUUUCUGUGCAGUCUCACCAUUUGCAUCA: 0.551
CAAUAUACUCUGAUCUACCCCUUAAUAUUGAAUAAAAGAACCAAGAAGUUCUUUCAGAUCACCAAUAUAAAAUUGUUUCCCAAAUAUAUGUGUUUAUCAAAUUUUGACAG: 0.518
UAUUUCUUCUCUACUCCCUAGUCUUAAUGUUUAACCUUGAAUGCUAUUAACUUAAAUAGCCAUUGAGGAGUUAGAAGAUGAAUUGUUCAUGAAGUCGGUGUUACAUAAAA: 0.808
AGAUGGUAGUGGCAAUAGCAGCGAUAGUUGCGUCAGUGCUAACUGCUGCUGCUGCCCGUUCUGUUGGCGGCUGCUGGCCAAGUGUGCACACUUAGCCCUGGUUGAGGUGC: 0.21
AAAAGUGAGUUUGGCCAGGAGGAAUGAGACGUCUCCUGAAAUAGGAACACCGGAACAUCAUGCUCACCUGCCAUCACUAUGCAUCCAGUUCCCACAGCUUGUGUCGUGAA: 1.19
ACAACAACAAAAGUGUCAUAUUUUAGAAGGCCUAGAGGUGACUCAUUUUAGAUAUAUAUACUUUGUUUUGGAAUAUUUGGUUGUAUAAAAUGUAAUGAGUGAGCUAAUUG: 0.829
GCUGCCUUUUGUCUAGCCUGCUAUGGGGGGCCAGAUUAUCUUGAUAAGAGCAGGUGAUUUGGGGACUAGCUGGGUUGGCAGGAAAAGAGCAGGAUGGAUCUCUUGGGACA: 1.29
CACUUAUAUUGUACAAUACUUCAGACUGUUUUUUUUAAAUACAUAAAACUUUAUGUUAAAAAACUCUAUUAACAUGGCCAAUUGGCAUGACUCCUCUUAUGAGGGAUGGG: 0.653
GCACCUCUGCCUGCGCUCGCACCUUCCUCCUCCUGAAACCAAGCUUUGAUUUAGAUUGAGUAAGAUUUACCCAGAAUGUCAGAUUCCUUUCCCUUUAGCACGUUUAAAGU: 31.6
UGUUUUCAAGUGUGGGGAGGAUAUGAAAAUGUUCUGUUCUCACUUUUGGCUUUAUGUCCAUUUUACCACUGUUUUUAUCCAAUAAACUAAGUCGGUAUUUUUUGUACCUU: 0.238
AUCAGAAACUCUGGGGGCGAGGGCUGAAACCUGCUUUCAUAAGCCCUUCAGGCGAUACUGAUGUAAACUAAAGCUUAAAAACCACCGUUUUACUGUGACUUCAUGAAGAA: 0.2
CAUUAUAACAUUUGCUGUUUUAAAAUUUUUGCUAUUUUUUCACAAACUGAUAUUCAAAAUAUUAAACAUUUGUUAUUUUGUAUAAACCUUUAAGUAAAAAUAUGCUGUUU: 0.639

For quick reference, copied from above (set 5):
CAAUAUACUCUGAUCUACCCCUUAAUAUUGAAUAAAAGAACCAAGAAGUUCUUUCAGAUCACCAAUAUAAAAUUGUUUCCCAAAUAUAUGUGUUUAUCAAAUUUUGACAG: 0.518
AAAAGUGAGUUUGGCCAGGAGGAAUGAGACGUCUCCUGAAAUAGGAACACCGGAACAUCAUGCUCACCUGCCAUCACUAUGCAUCCAGUUCCCACAGCUUGUGUCGUGAA: 1.19
GCUGCCUUUUGUCUAGCCUGCUAUGGGGGGCCAGAUUAUCUUGAUAAGAGCAGGUGAUUUGGGGACUAGCUGGGUUGGCAGGAAAAGAGCAGGAUGGAUCUCUUGGGACA: 1.29
GUCUGUAGUCUUUAUGAUCCUAAAAGGGAAAAUUGCCUUGGUAACUUUCAGAUUCCUGUGGAAUUGUGAAUUCAUACUAAGCUUUCUGUGCAGUCUCACCAUUUGCAUCA: 0.551
UAUUUCUUCUCUACUCCCUAGUCUUAAUGUUUAACCUUGAAUGCUAUUAACUUAAAUAGCCAUUGAGGAGUUAGAAGAUGAAUUGUUCAUGAAGUCGGUGUUACAUAAAA: 0.808
AGAUGGUAGUGGCAAUAGCAGCGAUAGUUGCGUCAGUGCUAACUGCUGCUGCUGCCCGUUCUGUUGGCGGCUGCUGGCCAAGUGUGCACACUUAGCCCUGGUUGAGGUGC: 0.21
GCACCUCUGCCUGCGCUCGCACCUUCCUCCUCCUGAAACCAAGCUUUGAUUUAGAUUGAGUAAGAUUUACCCAGAAUGUCAGAUUCCUUUCCCUUUAGCACGUUUAAAGU: 31.6
ACAACAACAAAAGUGUCAUAUUUUAGAAGGCCUAGAGGUGACUCAUUUUAGAUAUAUAUACUUUGUUUUGGAAUAUUUGGUUGUAUAAAAUGUAAUGAGUGAGCUAAUUG: 0.829
AUCAGAAACUCUGGGGGCGAGGGCUGAAACCUGCUUUCAUAAGCCCUUCAGGCGAUACUGAUGUAAACUAAAGCUUAAAAACCACCGUUUUACUGUGACUUCAUGAAGAA: 0.2
CACUUAUAUUGUACAAUACUUCAGACUGUUUUUUUUAAAUACAUAAAACUUUAUGUUAAAAAACUCUAUUAACAUGGCCAAUUGGCAUGACUCCUCUUAUGAGGGAUGGG: 0.653
CAUUAUAACAUUUGCUGUUUUAAAAUUUUUGCUAUUUUUUCACAAACUGAUAUUCAAAAUAUUAAACAUUUGUUAUUUUGUAUAAACCUUUAAGUAAAAAUAUGCUGUUU: 0.639
